Measured values from different studies.
Numbered parts are unrelated; each lists some results of a single study.

Sample 1
Target: Centromere-binding protein 1, full length, His-tagged (CBF1, Saccharomyces cerevisiae, UniProt P17106, residues 1-351)
Chain of UniProt P17106 (whole entry, looked up): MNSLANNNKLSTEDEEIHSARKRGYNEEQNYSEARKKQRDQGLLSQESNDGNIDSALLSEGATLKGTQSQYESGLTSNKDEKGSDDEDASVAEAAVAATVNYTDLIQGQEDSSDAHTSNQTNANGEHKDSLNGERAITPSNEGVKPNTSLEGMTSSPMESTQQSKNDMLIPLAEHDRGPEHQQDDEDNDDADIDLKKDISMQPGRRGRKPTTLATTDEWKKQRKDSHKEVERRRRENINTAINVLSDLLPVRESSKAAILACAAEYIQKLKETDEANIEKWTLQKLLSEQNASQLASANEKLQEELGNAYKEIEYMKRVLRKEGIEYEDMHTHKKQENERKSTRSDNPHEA
Technique: competition protein-binding microarray
Molecule type: double-stranded DNA, one strand shown
Medium: in vitro
Tested at: 2 µM
Notes: whole 60-bp probe, lowest competitor level
With: Pho4 competitor, 0.05 µM
Direction: higher = stronger binding
All sequences stand within: … GTCTTGATTCGCTTGACGCTGCTG
`CGACAAGCCGCTATTAGCGTGGGTACTGACATCAGG` gave a fluorescence intensity of 59.3 a.u.
The fluorescence intensity of `GTTTGATAGCTGGTTTACGTGCATCTCAAACAGAGA` is reported as 71.3 a.u.
The fluorescence intensity of `CTTAGAAGGCCGGCCCGCATGATTCAGAAGCAGACC` is reported as 76.2 a.u.
`GGGAATCCAGGCAGACACGTGCTACCGAGACTTTAA` has a fluorescence intensity of 1470 a.u.
`CACTTATCTGTTGAAAAGGTGTGCCTATAGCAACTA` has a fluorescence intensity of 73.4 a.u.
The fluorescence intensity of `TCATTTCGAATCGCGTACGTGGCCGGTTGTGGCTGG` is reported as 73.3 a.u.
With `ACTCCAAAATACATCCTCGTGGCAACCCAGGTTACG` the fluorescence intensity was 90.8 a.u.
`CGCTACCAGAAACGATGCGTGCAAAGACCAGTGTTT` gave a fluorescence intensity of 87.8 a.u.

Sample 2
Target: Sal-like protein 4, full length isoform B (SALL4, Homo sapiens, UniProt Q9UJQ4-2, residues 1-616)
Technique: universal PBM
Molecule type: double-stranded DNA, one strand shown
Medium: in vitro
Tested at: not given
Notes: 8-mer, flanks averaged, mean of replicates
Direction: higher = stronger binding
Residues (chain): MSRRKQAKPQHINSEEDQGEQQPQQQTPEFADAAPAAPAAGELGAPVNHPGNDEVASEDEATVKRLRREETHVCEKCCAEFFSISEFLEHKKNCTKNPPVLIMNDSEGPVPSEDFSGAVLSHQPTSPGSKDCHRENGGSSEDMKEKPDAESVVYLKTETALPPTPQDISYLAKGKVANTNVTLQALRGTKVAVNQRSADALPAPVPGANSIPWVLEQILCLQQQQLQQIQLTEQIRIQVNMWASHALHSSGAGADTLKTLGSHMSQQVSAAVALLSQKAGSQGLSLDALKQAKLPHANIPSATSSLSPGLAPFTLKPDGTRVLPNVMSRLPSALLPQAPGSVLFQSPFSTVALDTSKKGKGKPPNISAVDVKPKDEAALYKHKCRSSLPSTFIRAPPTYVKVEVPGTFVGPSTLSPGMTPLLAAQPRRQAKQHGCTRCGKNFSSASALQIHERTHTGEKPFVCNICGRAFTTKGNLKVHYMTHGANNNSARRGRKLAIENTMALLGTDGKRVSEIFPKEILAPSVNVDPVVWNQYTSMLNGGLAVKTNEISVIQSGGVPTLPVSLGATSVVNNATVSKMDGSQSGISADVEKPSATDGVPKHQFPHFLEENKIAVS
`AGTTCTTA` has an E-score of 0.108.
With `ACTGTAGC` the E-score was 0.0232.
`ACTGGGCT` has an E-score of -0.253.
The E-score of `CTTTAACA` is reported as 0.261.
`CGGATGAA` has an E-score of 0.0378.
For `GGGGGGGA`, the E-score was -0.33.
`CGACCCCA` gave an E-score of -0.211.

Sample 3
Target: Interferon regulatory factor 7, full length, phosphomimetic (IRF7, Homo sapiens, UniProt Q92985, residues 1-503, S101K/S471D/S472D/S475D/S476D/S477D/S483D/S484D/S487D)
Technique: protein-binding microarray
Molecule type: double-stranded DNA, one strand shown
Medium: in vitro
Tested at: 250 nM
Notes: 60-bp whole probe
With: salmon DNA 0.4 mg/ml
Baseline: random background probes
Direction: higher = stronger binding
Target sequence (chain): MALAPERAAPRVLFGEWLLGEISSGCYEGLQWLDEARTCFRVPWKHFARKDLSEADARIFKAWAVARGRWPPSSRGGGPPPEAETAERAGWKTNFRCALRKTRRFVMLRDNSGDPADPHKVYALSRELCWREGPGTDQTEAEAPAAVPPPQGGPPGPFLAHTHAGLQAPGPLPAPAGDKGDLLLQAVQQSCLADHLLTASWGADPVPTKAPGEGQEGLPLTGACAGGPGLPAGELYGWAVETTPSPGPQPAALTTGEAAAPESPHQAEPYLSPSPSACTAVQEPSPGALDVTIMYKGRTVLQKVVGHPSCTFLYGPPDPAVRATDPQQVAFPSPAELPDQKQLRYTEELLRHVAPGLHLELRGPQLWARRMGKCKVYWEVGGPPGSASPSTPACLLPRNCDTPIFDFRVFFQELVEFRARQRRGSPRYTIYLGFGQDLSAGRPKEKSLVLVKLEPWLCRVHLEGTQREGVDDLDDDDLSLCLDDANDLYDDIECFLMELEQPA
The log fluorescence of `GCCTAGCACGTAGGTCTCCTTTTCCTTTAGTGCTAGGTCTTGATTCGCTTGACGCTGCTG` is reported as 1.09 z-score.
With `GCCTAGCACTTAGGTCTCAGTATCGGTTAGTGCTAGGTCTTGATTCGCTTGACGCTGCTG` the log fluorescence was 1.56 z-score.
The log fluorescence of `GCCTAGCACGACGAACTGGGGCTTCGAGACGTGCTAGTCTTGATTCGCTTGACGCTGCTG` is reported as -0.645 z-score.

Single results of other studies
`PhoQ, residues 284 288 289 292 302 303 TNASYF` gave a fold induction of 3.87 (PhoP, residues 12 14 15 18 19 SMASL (Escherichia coli, UniProt P23836); Sort-seq, measured: YFP reporter; E. coli; PhoQ-PhoP variant library, with: 10 µM Mg2+; baseline: high Mg2+ state, higher = stronger signaling).

Repeated from above (sample 1):
The fluorescence intensity of `CTTAGAAGGCCGGCCCGCATGATTCAGAAGCAGACC` is reported as 76.2 a.u.
`GGGAATCCAGGCAGACACGTGCTACCGAGACTTTAA` has a fluorescence intensity of 1470 a.u.
